Published values gathered from unrelated publications.
Each line is one published result; not all experiments were run side by side. Values joined by “and” are separate records of one study, mostly repeats; a detail may differ. ± marks the error that the study gave.
DRD2: D(2) dopamine receptor (DRD2, Homo sapiens, UniProt P14416)
UniProt P14416, sequence (whole entry, looked up): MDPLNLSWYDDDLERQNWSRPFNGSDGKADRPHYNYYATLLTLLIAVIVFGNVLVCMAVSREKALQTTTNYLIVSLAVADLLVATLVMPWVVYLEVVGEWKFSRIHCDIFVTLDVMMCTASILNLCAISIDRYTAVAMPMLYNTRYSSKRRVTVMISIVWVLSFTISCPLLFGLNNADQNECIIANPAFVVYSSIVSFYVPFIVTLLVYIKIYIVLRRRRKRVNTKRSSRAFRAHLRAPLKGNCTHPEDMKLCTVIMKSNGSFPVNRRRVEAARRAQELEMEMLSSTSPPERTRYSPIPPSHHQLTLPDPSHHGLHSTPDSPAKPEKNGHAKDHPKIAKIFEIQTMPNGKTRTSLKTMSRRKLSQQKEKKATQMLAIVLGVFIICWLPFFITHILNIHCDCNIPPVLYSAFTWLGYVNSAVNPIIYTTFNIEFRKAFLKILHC
bglA: bglA (Thermotoga maritima, UniProt Q08638)
UniProt Q08638, sequence (whole entry, looked up): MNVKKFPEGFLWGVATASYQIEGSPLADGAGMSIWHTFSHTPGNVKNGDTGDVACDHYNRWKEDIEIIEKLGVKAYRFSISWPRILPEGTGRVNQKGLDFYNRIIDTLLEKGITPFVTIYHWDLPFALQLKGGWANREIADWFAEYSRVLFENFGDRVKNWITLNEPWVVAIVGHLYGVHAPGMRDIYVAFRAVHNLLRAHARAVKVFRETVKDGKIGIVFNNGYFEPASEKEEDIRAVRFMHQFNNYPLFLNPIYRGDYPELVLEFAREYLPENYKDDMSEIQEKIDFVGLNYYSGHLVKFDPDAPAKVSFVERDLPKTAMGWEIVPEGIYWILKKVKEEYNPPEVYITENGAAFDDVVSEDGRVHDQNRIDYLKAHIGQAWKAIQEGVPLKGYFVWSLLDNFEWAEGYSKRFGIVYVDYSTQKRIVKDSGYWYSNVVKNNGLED
CAPN1: Calpain-1 catalytic subunit (CAPN1, Homo sapiens, UniProt P07384)
CNR1: Cannabinoid receptor 1 (CNR1, Homo sapiens, UniProt P21554)
UniProt P21554, sequence (whole entry, looked up): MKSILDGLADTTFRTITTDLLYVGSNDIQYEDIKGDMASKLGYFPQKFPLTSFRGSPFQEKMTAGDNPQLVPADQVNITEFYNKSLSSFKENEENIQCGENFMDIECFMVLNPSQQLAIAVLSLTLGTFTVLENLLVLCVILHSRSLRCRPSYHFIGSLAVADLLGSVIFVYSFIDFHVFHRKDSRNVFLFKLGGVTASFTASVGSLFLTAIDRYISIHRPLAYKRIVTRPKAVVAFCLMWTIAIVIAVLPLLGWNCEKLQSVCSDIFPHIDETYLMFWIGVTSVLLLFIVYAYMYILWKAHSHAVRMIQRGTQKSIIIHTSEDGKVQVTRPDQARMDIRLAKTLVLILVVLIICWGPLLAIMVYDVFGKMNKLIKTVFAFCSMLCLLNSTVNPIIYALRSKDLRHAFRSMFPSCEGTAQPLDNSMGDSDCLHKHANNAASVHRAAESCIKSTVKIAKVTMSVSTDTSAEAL
Astl: Astacin-like metalloendopeptidase (Astl, Mus musculus, UniProt Q6HA09)
UniProt Q6HA09, sequence (whole entry, looked up): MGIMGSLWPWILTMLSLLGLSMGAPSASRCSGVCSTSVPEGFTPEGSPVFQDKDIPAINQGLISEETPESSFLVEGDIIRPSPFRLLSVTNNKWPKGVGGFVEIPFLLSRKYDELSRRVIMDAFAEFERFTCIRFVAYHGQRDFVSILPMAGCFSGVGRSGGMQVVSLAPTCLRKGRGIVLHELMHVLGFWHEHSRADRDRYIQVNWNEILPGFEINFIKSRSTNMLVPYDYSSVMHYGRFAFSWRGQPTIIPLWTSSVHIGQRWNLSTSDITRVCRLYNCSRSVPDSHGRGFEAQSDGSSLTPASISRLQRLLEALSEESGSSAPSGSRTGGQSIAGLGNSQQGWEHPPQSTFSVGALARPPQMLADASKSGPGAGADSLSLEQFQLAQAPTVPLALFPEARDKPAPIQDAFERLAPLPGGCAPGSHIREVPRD
Calpain-2 catalytic subunit: Calpain-2 catalytic subunit (Homo sapiens, UniProt P17655)
UniProt P17655, sequence (whole entry, looked up): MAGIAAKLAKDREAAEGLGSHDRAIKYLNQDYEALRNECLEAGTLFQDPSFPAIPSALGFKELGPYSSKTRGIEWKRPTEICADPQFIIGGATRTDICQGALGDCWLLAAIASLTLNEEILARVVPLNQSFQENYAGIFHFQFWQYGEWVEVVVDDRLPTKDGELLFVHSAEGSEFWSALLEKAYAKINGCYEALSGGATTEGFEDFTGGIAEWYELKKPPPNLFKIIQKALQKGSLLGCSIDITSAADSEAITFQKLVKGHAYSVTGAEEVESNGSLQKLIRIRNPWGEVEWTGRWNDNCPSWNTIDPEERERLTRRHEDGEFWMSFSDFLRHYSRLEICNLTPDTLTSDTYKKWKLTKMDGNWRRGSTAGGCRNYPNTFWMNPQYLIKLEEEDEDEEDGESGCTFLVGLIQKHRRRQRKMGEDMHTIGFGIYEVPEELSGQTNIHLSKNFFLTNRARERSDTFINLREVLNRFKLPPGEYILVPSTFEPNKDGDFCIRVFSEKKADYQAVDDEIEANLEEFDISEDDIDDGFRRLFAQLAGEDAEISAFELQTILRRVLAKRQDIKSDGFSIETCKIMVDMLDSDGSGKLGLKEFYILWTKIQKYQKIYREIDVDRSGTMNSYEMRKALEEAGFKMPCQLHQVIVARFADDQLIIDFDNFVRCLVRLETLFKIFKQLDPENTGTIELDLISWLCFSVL
EPHA2: Ephrin type-A receptor 2 (EPHA2, Homo sapiens, UniProt P29317)
UniProt P29317, sequence (whole entry, looked up): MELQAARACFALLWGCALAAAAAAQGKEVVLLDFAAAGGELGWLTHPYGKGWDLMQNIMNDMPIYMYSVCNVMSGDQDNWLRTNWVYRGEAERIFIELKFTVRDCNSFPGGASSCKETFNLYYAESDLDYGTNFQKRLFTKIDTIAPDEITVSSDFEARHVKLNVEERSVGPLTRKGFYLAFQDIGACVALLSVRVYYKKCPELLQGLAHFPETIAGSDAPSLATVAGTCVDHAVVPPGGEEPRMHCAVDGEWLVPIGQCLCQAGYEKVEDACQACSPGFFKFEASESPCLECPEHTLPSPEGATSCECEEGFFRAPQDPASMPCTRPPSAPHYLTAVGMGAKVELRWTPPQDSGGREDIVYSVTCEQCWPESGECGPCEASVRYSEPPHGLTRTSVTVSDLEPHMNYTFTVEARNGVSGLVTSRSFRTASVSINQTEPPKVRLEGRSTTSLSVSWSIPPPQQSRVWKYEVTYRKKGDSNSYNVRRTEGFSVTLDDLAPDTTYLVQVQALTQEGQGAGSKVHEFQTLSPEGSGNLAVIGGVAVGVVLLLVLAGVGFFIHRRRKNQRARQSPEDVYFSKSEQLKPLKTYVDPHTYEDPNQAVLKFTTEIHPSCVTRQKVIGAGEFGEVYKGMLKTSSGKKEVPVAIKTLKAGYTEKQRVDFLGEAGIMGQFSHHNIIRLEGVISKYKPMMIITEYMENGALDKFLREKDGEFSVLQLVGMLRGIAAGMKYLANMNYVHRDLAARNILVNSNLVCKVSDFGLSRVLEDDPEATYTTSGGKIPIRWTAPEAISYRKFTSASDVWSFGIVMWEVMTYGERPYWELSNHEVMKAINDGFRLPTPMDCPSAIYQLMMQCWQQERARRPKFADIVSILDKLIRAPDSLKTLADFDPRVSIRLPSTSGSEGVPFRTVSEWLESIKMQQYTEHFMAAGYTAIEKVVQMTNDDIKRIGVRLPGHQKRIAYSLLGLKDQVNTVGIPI
GLAA: Glucoamylase (GLAA, Aspergillus niger, UniProt P69328)
UniProt P69328, sequence (whole entry, looked up): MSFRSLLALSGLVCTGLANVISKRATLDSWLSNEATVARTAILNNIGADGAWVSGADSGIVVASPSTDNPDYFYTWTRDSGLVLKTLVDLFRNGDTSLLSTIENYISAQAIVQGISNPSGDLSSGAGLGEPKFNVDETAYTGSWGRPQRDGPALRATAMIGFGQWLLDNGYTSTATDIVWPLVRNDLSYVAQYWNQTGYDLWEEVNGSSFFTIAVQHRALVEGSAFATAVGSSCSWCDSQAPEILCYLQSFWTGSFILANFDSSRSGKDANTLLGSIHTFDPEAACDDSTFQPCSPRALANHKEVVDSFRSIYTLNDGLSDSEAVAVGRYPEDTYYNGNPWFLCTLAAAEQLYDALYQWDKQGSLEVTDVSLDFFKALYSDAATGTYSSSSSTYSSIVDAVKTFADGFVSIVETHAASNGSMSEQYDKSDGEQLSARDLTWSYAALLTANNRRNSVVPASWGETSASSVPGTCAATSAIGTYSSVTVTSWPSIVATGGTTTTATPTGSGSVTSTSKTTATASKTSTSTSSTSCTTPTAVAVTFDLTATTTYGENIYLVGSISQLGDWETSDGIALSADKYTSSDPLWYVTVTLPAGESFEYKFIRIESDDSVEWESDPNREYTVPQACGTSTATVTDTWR
XIAP BIR3: E3 ubiquitin-protein ligase XIAP, BIR3 (XIAP, Homo sapiens, UniProt P98170)
UniProt P98170, sequence (whole entry, looked up): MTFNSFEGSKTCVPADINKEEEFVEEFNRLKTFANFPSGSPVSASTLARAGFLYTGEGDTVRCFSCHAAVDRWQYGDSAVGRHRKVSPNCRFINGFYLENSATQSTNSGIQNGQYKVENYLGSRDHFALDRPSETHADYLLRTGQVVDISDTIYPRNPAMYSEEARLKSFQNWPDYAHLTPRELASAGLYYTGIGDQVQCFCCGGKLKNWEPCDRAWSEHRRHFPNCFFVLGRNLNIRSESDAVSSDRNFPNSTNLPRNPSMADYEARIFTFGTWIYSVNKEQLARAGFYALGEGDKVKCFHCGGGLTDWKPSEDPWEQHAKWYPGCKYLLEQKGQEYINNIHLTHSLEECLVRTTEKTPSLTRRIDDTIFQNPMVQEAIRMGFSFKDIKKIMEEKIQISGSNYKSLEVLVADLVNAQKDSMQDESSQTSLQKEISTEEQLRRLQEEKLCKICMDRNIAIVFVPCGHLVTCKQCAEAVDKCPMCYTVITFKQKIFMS
UniProt P16257, sequence (whole entry, looked up): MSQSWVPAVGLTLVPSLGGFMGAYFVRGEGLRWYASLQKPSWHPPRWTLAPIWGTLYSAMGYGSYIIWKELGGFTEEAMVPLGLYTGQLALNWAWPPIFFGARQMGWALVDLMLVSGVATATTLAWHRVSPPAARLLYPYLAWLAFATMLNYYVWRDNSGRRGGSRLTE
UniProt P00374, sequence (whole entry, looked up): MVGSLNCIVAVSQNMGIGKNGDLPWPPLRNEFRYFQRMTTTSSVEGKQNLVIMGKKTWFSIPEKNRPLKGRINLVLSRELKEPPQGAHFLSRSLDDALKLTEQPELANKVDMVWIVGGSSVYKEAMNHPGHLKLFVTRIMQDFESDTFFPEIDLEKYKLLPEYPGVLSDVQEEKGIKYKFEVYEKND

CCn1c2ccccc2c2cc(CNCCCn3ccnn3)ccc21
Ki (DRD2; cell-free assay): > 10 µM

CCC(=O)[C@@H]1[C@H]2[C@H](O)[C@@H](O)[C@H](O)[C@@H](CO)[C@@H]12
Ki (bglA; enzyme activity, inhibitor, Lineweaver-Burk; pH 6.8, 25 °C, added: p-nitrophenyl β-D-glucopyranoside): 88.9 µM

CCC(NC(=O)C(CC(C)C)NC(=O)CCc1ccccc1)C(=O)C(=O)NCc1cc(F)cc(OC)c1 (centres unmarked)
Ki (CAPN1; enzyme activity, inhibitor, fluorescence): 0.47 µM

CCOC(=O)[C@](CC)(CCCSCCOCCOCCNC(=O)c1ccc(C(=O)[O-])c(C2=C3C=CC(=[N+](C)C)C=C3[Si](C)(C)c3cc(N(C)C)ccc32)c1)NC(=O)c1ccc(C2CC2)c(Cc2ccc(F)cc2)n1
Ki (CNR1; ligand displacement, radioligand; cell membranes): 0.114 µM

CCCC/N=C1/SC[C@@H]2[C@@H](O)[C@H](O)[C@@H](O)[C@@H](CCC)N12
Ki (bglA; competitive inhibitor; added: p-nitrophenyl glucopyranoside): 16 ± 1 µM

O=C(CCN(Cc1ccc(Cl)c(O)c1F)Cc1ccc(Cl)c(O)c1F)NO
Ki (Astl; enzyme activity, inhibitor, fluorogenic; pH 7.4, 37 °C, apparent Ki, Morrison equation, added: 25 µM substrate): 0.49 ± 0.06 µM

NCCN1C(=O)c2cccc3cccc(c23)C1=O
Ki (Chitooligosaccharidolytic beta-N-acetylglucosaminidase (Ostrinia furnacalis, UniProt Q06GJ0); inhibitor; pH 6.0, 25 °C, added: pNP-β-GlcNAc): > 100 µM

CCC(NC(=O)C(CC(C)C)NC(=O)NCc1ccccc1)C(=O)C(=O)NCc1cccc(OC)c1 (centres unmarked)
Ki (Calpain-2 catalytic subunit; enzyme activity, inhibitor, fluorescence): 0.047 µM

CCCCCCCCNC(=S)N1[C@H](CCCCCCCC)[C@H](O)[C@@H](O)[C@H](O)[C@H]1CO
Ki (bglA; competitive inhibitor; added: p-nitrophenyl glucopyranoside): > 2000 µM

Cc1ncsc1-c1ccc(CNC(=O)[C@@H]2C[C@@H](O)CN2C(=O)[C@@H](NC(=O)OC(C)(C)C)C(C)(C)C)cc1
Ki (von Hippel-Lindau disease tumor suppressor, with elongin B/C (VHL, Homo sapiens, UniProt P40337); binding, competitor, fluorescence polarization; 90 min, added: 10 nM BODIPY FL VH032 with 100 nM GST-VCB): 8 µM

NC(CC(=O)c1cccc(O)c1)C(=O)O (centres unmarked)
Ki (Kynureninase (Rattus norvegicus, UniProt P70712); inhibitor): 0.04 µM

CC[C@H](C)[C@H](NC(=O)[C@@H](NC(=O)[C@H](CO)NC(=O)[C@@H](NC(=O)[C@H](CCC(N)=O)NC(=O)[C@H](CCSC)NC(=O)[C@@H](N)CS)[C@@H](C)O)[C@@H](C)CC)C(=O)O
Ki (Na(+)/H(+) exchange regulatory cofactor NHE-RF2, PDZ domain 2 (Homo sapiens, UniProt Q15599); binding to PDZ2 domain, inhibitor, fluorescence polarization): 166 ± 104 µM

CCCCCCCC/N=C1/SC[C@@H]2[C@@H](O)[C@H](O)[C@@H](O)[C@@H](CCC)N12
Ki (bglA; competitive inhibitor; added: p-nitrophenyl glucopyranoside): 280 ± 25 µM

Cc1ccc(NC(=O)c2ccc(-c3cc(O)ccc3C)c(C)c2)cc1F
Ki (EPHA2): > 0.25 µM

CCC(NC(=O)C(CC(C)C)NC(=O)CCc1ccccc1)C(=O)C(=O)NCc1cccc(OC)c1 (centres unmarked)
Ki (Calpain-2 catalytic subunit; enzyme activity, inhibitor, fluorescence): 0.054 µM

O=C(CCN(Cc1cccnc1)Cc1ccc(Cl)c(O)c1F)NO
Ki (Astl; enzyme activity, inhibitor, fluorogenic; pH 7.4, 37 °C, apparent Ki, Morrison equation, added: 25 µM substrate): 3.13 ± 0.01 µM

CNc1ccccc1C(=O)O[C@H]1[C@@H](O)[C@H](n2ccc(=O)[nH]c2=O)O[C@@H]1COP(=O)(O)OP(=O)(O)O
Ki (ADCY1 (Bos taurus, UniProt P19754); adenylyl cyclase activity, inhibitor; Sf9 membranes; added: 5 mM MnCl2, 100 µM forskolin): 0.39 ± 0.05 µM

NCCCCCO[C@H]1O[C@H](COS(=O)(=O)O)[C@@H](O[C@@H]2O[C@@H](C(=O)O)[C@@H](O[C@H]3O[C@H](COS(=O)(=O)O)[C@@H](O[C@@H]4O[C@@H](C(=O)O)[C@@H](O[C@H]5O[C@H](COS(=O)(=O)O)[C@@H](O[C@@H]6O[C@@H](C(=O)O)[C@@H](O)[C@H](O)[C@H]6OS(=O)(=O)O)[C@H](O)[C@H]5NS(=O)(=O)O)[C@H](O)[C@H]4OS(=O)(=O)O)[C@H](O)[C@H]3NS(=O)(=O)O)[C@H](O)[C@H]2OS(=O)(=O)O)[C@H](O)[C@H]1NS(=O)(=O)O
Ki (Heparanase (HPSE, Homo sapiens, UniProt Q9Y251); enzyme activity, inhibitor, absorbance): 40.9 µM

CCCCCCCCN1[C@H](CCC)[C@H](O)[C@@H](O)[C@H](O)[C@H]1CO
Ki (GLAA; enzyme activity, competitive inhibitor; optimal pH, added: p-nitrophenyl glycopyranoside): > 2000 µM

CC[C@H](C)[C@H](NC(=O)[C@H](CCCCN)NC(=O)[C@H](CO)NC(=O)[C@@H](NC(=O)[C@H](CCC(N)=O)NC(=O)[C@H](CCSC)NC(=O)[C@@H](N)CS)[C@@H](C)O)C(=O)O
Ki (Na(+)/H(+) exchange regulatory cofactor NHE-RF2, PDZ domain 1 (Homo sapiens, UniProt Q15599); binding to PDZ1 domain, inhibitor, fluorescence polarization): 806 ± 84 µM

CCCCCCCC[C@@H]1[C@H](O)[C@@H](O)[C@H](O)[C@@H](CO)N1C(=S)NCCCC
Ki (GLAA; enzyme activity, inhibitor): 92 µM

CC(=O)c1cccc(NC(=O)c2nc(-c3ccccc3)n(-c3cccc(C)c3)n2)c1
Ki (CNR1; cell-free assay): 4.62 µM

CCC(NC(=O)C(CC(C)C)NC(=O)NCc1ccccc1)C(=O)C(=O)NCc1cc(OC)cc(OC)c1 (centres unmarked)
Ki (CAPN1; enzyme activity, inhibitor, fluorescence): 0.208 µM

COc1c(Cl)ccc(CN(CCC(=O)NO)Cc2ccc(Cl)c(OC)c2F)c1F
Ki (Astl; enzyme activity, inhibitor, fluorogenic; pH 7.4, 37 °C, apparent Ki, Morrison equation, added: 25 µM substrate): 1.13 ± 0.09 µM

CN[C@@H](C)C(=O)N[C@H]1CN(C(=O)Cc2ccccc2)CC[C@H]2CC[C@@H](C(=O)NCc3ccc([N+](=O)[O-])cc3)N2C1=O
Ki (XIAP BIR3; ligand displacement, FP): 11.6 µM

CC(Oc1cc(-c2ccccc2)nc2ccncc12)C(=O)N(C)c1ccccc1 (centres unmarked)
Ki (Tspo (Rattus norvegicus, UniProt P16257); binding, radioligand displacement; rat brain homogenate): 0.0006 ± 0.0001 µM

CNC(=O)C1CCN(C(=O)CCC(=O)N(CC(C)(C)C)c2ccc(Cl)cc2C(O)c2ccccc2Cl)CC1 (centres unmarked)
Ki (Squalene synthase (Homo sapiens, UniProt P37268); binding, fluorescence polarization competition; unknown site tracer): 0.3 µM

CNCc1c(OCc2ccc(F)cc2)ccc2ccccc12
Ki (SLC6A4 (Homo sapiens, UniProt P31645); ligand displacement, radioligand; cell membranes): 1.03 µM

[N-]=[N+]=N[C@H]1C[C@H](n2cnc3c(=O)[nH]c(N)nc32)O[C@@H]1COP(=O)(O)OP(=O)(O)OP(=O)(O)O
Ki (TERT (Homo sapiens, UniProt O14746); enzyme activity, inhibitor): 1.5 µM

CN[C@@H](C)C(=O)N[C@H]1CN(C(=O)Cc2ccccc2)CC[C@H]2CC[C@@H](C(=O)NCc3ccccc3C(F)(F)F)N2C1=O
Ki (XIAP BIR3; ligand displacement, FP): 4.24 µM

Clc1ccc(-n2cc(CNC[C@@H]3CCCOC3)nn2)c(Cl)c1
Ki (DRD2; ligand displacement, radioligand): > 10 µM

Cc1cc(N2CCCCC2)c(NC(=O)c2ccc(-c3cc(O)ccc3C)c(C)c2)cc1F
Ki (EPHA2): > 0.25 µM

CC(=O)N[C@@H]1[C@@H](O)[C@H](O)[C@@H](CO)N[C@@H]1CP(=O)(O)OP(=O)(O)OC/C=C(/C)CC/C=C(\C)CC/C=C(\C)CCC=C(C)C
Ki (Peptidoglycan glycosyltransferase (Clostridioides difficile, UniProt Q189X7); Clostridioides difficile protein): 6.3 ± 1.4 µM

CCC[C@H]1N[C@H](CO)[C@@H](O)[C@H](O)[C@H]1O
Ki (GLAA; enzyme activity, inhibitor): 67 µM

CNC(=O)C1CCN(c2ccccc2NC(=O)c2ccc(-c3cc(O)ccc3C)cc2)CC1
Ki (EPHA2; enzyme activity, inhibitor): 0.0073 µM

CC1(C)C2=C3C=C4C5=[N+](CCC4OC3CCN2c2ccc(S(=O)(=O)[O-])cc21)c1ccc(C(=O)NCCCCOc2ccc(C(=O)CCCN3CCC(O)(c4ccc(Cl)cc4)CC3)cc2)cc1C5(C)C (centres unmarked)
Ki (DRD2; ligand displacement, radioligand; cell membranes): 0.013 µM

CCCCN1[C@H](CCC)[C@H](O)[C@@H](O)[C@H](O)[C@H]1CO
Ki (bglA; competitive inhibitor; added: p-nitrophenyl glucopyranoside): > 2000 µM

CNC(=O)C1CCN(c2cc(C)c(F)cc2NC(=O)c2ccc(-c3cc(O)ccc3C)c(C)c2)CC1
Ki (EPHA2; enzyme activity, inhibitor): 0.004 µM and < 0.01 µM

O=C(N/N=C/c1cc(Br)c(O)c(Br)c1O)C(=O)Nc1ccc2ccccc2c1
Ki (CFTR (Homo sapiens, UniProt P13569); ion current, inhibitor): ~2 µM

CC1(C)NC(N)=Nc2nc3cc(Cl)c(Cl)cc3n21
Ki (DHFR (Homo sapiens, UniProt P00374); inhibitor): 0.663 µM

CN[C@@H](C)C(=O)N[C@H]1CN(C(=O)Cc2ccccc2)CC[C@H]2CC[C@@H](C(=O)NCc3ccccc3)N2C1=O
Ki (XIAP BIR3; ligand displacement, FP): 0.323 µM
